Experimental data of several laboratories.
Each numbered part is a random draw from the data of one study; scales do not carry over between parts. Positions count from the first letter of the parent shown.

Series 1
Target: PABPC1L2, full length, GST fusion (mouse, UniProt A0ABA7IW68)
Technique: RNAcompete
Form: RNA
Medium: in vitro
Tested at: 20 nM
Setting: 7-mer, probes averaged, single round
Relative to: mean of 7-mers
Reading: higher = stronger binding
Quantity: 7-mer Z-score
Target sequence (chain): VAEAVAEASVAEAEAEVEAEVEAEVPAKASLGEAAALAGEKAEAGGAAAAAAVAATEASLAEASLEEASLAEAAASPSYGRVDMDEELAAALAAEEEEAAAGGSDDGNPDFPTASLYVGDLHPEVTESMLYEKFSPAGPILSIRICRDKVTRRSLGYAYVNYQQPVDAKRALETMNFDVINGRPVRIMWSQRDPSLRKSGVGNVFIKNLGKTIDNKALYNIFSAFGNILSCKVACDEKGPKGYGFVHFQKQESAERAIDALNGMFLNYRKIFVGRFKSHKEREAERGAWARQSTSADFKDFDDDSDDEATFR
GAACCAC: 0.0116
UGACCUU: -0.313
UUAUGCA: -0.112
AUUGAGA: 0.204
GGCUGUC: -0.0736
UACCGGC: -0.244
CCGUUGA: -0.164
CUGUCUA: -0.364
UCCACGG: -0.0554
GCUCUGC: -0.295
AGACCUU: -0.311
GAGAGGC: 0.216
CUCGCUU: -0.478
CAGACCG: 0.0207
UGACGCC: -0.246
ACGGCAG: 0.153
CUAACUA: -0.188
UCGUGUA: -0.079
CGGUGCA: 0.0352
CAAUAGU: -0.195
ACGACAU: -0.0881
GCCUCUG: -0.237
GUGGUCC: -0.0754
AGUAGGC: 0.0134

Series 2
Target: CCNF, cyclin fold, Cln2 fusion (human)
Technique: yeast growth competition, sequencing
Medium: yeast
Setting: strong parent motif
Relative to: not given
Reading: higher = stronger binding
Quantity: normalised enrichment score
Parent: INSM1 docking peptide (human); PKAIRKLHFEDEV; partner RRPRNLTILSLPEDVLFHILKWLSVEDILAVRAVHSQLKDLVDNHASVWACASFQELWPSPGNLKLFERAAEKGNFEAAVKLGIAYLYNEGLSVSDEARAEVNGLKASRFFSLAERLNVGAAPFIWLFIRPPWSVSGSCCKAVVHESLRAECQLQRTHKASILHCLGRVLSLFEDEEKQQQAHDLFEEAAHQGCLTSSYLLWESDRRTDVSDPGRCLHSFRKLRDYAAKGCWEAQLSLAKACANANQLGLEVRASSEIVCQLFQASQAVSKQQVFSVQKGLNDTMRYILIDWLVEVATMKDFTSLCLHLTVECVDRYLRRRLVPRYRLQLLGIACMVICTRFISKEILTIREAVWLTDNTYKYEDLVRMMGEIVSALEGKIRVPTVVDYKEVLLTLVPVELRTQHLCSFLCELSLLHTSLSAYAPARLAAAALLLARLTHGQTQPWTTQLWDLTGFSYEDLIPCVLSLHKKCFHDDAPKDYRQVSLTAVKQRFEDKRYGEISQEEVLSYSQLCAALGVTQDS
PMAIRKLHFEDEV [K2M]: 7.4
PKAIRKSHFEDEV [L7S]: 0.502
PKAIRKLHFEKEV [D11K]: 7.65
PKAIRKLHFQDEV [E10Q]: 7.37
PKAIRELHFEDEV [K6E]: 5.62
PKACRKLHFEDEV [I4C]: 7.72
PKAIRKLHFEDLV [E12L]: 8.22
PKAIFKLHFEDEV [R5F]: 0.287
PKAIRCLHFEDEV [K6C]: 6.6
PKAIRKLHFEHEV [D11H]: 7.55
PEAIRKLHFEDEV [K2E]: 6.36
PKWIRKLHFEDEV [A3W]: 5.43
PKAINKLHFEDEV [R5N]: 0.0122

Series 3
Target: CREB3L4, bZIP domain (human)
Technique: DHFR protein complementation
Medium: yeast
Setting: single substitutions, most at no-binding floor
Relative to: wild-type JUN-FOS pair
Reading: higher = stronger binding
Quantity: binding fitness
Parent: JUN, bZIP domain (human); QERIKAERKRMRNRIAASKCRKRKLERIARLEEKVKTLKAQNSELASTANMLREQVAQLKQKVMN; partner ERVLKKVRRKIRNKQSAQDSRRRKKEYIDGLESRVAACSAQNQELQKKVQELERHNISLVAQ
L31Q: -1.48 natural log
S47D: -1.41 natural log
I28W: -1.41 natural log
N42L: -1.49 natural log
T48G: -1.51 natural log
V35K: -1.62 natural log
T37M: -1.5 natural log
V35T: -1.46 natural log

Series 4
Target: Fragile X messenger ribonucleoprotein 1, C-terminal low-complexity region (Fmr1, Mus musculus, UniProt P35922)
Technique: RNA Bind-n-Seq
Form: RNA
Medium: in vitro
Tested at: 200 nM
Setting: whole 134-nt RNA, ends assumed
With: 150 mM LiCl
Relative to: input library
Reading: higher = stronger binding
Quantity: log2 enrichment
All molecules: 7-deaza-guanosine replaces G
Constant ends, left off below: GGGAGUUCUACAGUCCGACGAUC … UGGAAUUCUCGGGUGUCAAGG
UAACUUUAGAGGAGGAUCUGAUGGAUAUGGCAGUGGACGUGGAUUUGGGGAUGGCUAUAAUGGGUAUGGAGGGGGACCUGGAGGUGGCAA: 0.718
GCAGGAAGUAAAAACAAAUGGAAAUGCUUCGGAUAGUGGCAAGGGUGGGGGUUGCUAAGGAAAGGGUGGGAUGGGAGUGGGUAAAGAGUU: 1.61
CCUGUGCUACACAUCGUAUGUACCGAAUCGGGGAAAGGGGAAAAAAAGGGGUUUUUGGGGAAAGUAUUAUGUUACGCCGUUCGGAUCUGC: -0.174
ACCAUGCAGGUGGGCAUCUUUGGGAAGUGGGGCAAGGGGGGGAUAGGGAGGGGGGUAACACUUUGGGAACAGGUGGUCCCAGGUCGUAAA: 1.4
UCCUGUGCUACACAUCGUAUGUACCGAAUCGGGGAAAAAAAGGGGAAAGGGGUUUGGGGAAAGUAUUAUGUUACGCCGUUCGGAUCUGCA: -0.318
UGGCCCUGGUGGCAUGCGGGGAGGAAGGGGUGGCCUCAUGGAUCGUGGUGGUCCCGGUGGAAUGUUCAGAGGUGGCCGUGGUGGAGACAG: 0.0816

Series 5
Target: Prothrombin, mature alpha-thrombin (F2, Homo sapiens, UniProt P00734)
Technique: aptamer microarray, sandwich
Form: DNA with 2'F-ANA
Medium: in vitro
Tested at: 200 nM
Setting: whole 15-mer aptamer, many near background
With: Cy3 exosite-II aptamer, 400 nM
Reading: higher = stronger binding
Quantity: mean fluorescence intensity
Strand: GGTTGGTGTGGTTGG
2'F-ANA at 3 4 8 12 13 14: 437 a.u.
2'F-ANA at 4 6 7 8 9 12 13: 380 a.u.
2'F-ANA at 3 6 8 11 13: 740 a.u.
2'F-ANA at 1 2 3 6 7 10 14 15: 60.8 a.u.
2'F-ANA at 1 3 4 6 8 9 10 13 14 15: 53.5 a.u.
2'F-ANA at 2 7 8 11 12 13 14: 189 a.u.
2'F-ANA at 1 6 7 8 9 10 12 13: 66.8 a.u.
2'F-ANA at 2 3 5 6 10 11 13: 47.2 a.u.
2'F-ANA at 1 3 5 7 8 9 12 13 15: 101 a.u.
2'F-ANA at 5 6 10 11 12 13 14: 42.7 a.u.
2'F-ANA at 1 3 6 7 9 10 12 13 15: 107 a.u.
2'F-ANA at 2 4 6 8 9 10 11 12 14 15: 62.3 a.u.
2'F-ANA at 1 5 7 9 14: 49.6 a.u.

Series 6
Target: Histone acetyltransferase KAT6A, winged helix 1, GST fusion (KAT6A, Homo sapiens, UniProt Q92794, residues 1-85)
Technique: protein binding microarray
Form: double-stranded DNA, one strand shown
Medium: in vitro
Tested at: not given
Setting: 8-mer, flanks averaged, mean of 2 arrays, mostly near background
Relative to: not given
Reading: higher = stronger binding
Quantity: E-score
Construct (chain): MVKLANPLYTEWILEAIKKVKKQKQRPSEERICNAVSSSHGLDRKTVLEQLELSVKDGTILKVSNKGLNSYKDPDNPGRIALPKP
CTTTAGTA: -0.0516
GGGCTTCA: 0.00403
ATCGTCAG: -0.233
ACCTGGGG: -0.133
ACGGCGAG: 0.34
AAGGGAAT: -0.0774
AAACAGGA: -0.303
GAAGCTTA: -0.0632
CCGTCTGC: 0.217
GATATATC: -0.00802
CTGAGCGA: -0.0424
TCCAACCA: -0.179
ATATACCC: -0.0529
AACGTGTA: -0.166
GGGCTCAA: 0.04
CTCCAGTC: -0.00381

Series 7
Target: Interferon regulatory factor 3, full length, phosphomimetic (IRF3, Homo sapiens, UniProt Q14653, residues 1-427, S386D/S396D/S398D/S402D/T404D/S405D)
Technique: protein-binding microarray
Form: double-stranded DNA, one strand shown
Medium: in vitro
Tested at: 2540 nM top
Setting: 60-bp whole probe
With: salmon DNA 0.4 mg/ml
Relative to: random background probes
Reading: higher = stronger binding
Quantity: fitted relative affinity
Constant ends, left off below: GCCTAGCAC … GTCTTGATTCGCTTGACGCTGCTG
Residues (chain): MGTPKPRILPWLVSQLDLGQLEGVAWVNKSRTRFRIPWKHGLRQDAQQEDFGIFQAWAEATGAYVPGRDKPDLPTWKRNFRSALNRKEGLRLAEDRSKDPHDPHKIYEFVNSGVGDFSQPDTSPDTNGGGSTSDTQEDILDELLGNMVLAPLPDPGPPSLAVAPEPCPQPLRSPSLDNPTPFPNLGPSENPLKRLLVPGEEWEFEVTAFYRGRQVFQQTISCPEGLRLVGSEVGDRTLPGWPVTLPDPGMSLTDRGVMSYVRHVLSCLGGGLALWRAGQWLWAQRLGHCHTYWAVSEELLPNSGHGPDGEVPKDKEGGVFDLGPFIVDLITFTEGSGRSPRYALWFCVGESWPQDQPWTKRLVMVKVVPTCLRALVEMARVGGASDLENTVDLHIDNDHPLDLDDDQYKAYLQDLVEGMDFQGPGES
TTAGTTATCGGTTTCGGTTAGTGCTAG: 6.44 z-score
TCAAGTCTCAACCCCCAAACTGTGCTA: -0.234 z-score
GACGGACTGCTTTTCCTGAGGTGCTAG: -0.254 z-score
TTAGGACTGCCTTTCCTTTAGTGCTAG: 0.575 z-score
GACGGTTTCGGACTTGGGACGTGCTAG: 5.94 z-score
GACGGACCGCTTATCCTGACGTGCTAG: 0.0439 z-score
GACGGTTTCCTTTTCCTGAGGTGCTAG: 10.8 z-score
GACGGACTGCTTTTCCGGACGTGCTAG: 0.302 z-score
TTTCTTTTCTTTTCTTTTTTGTGCTAG: 7.52 z-score
GCCCCACCCGCTCTGGCCCCGTGCTAG: -0.534 z-score
GACGGTTCCGGTTTCGGCACGTGCTAG: 5.59 z-score
CTCATTCTCTGCTTGCGTCTGTGCTAG: 2 z-score
GACGGACTGGGGTTTGGGGACGTGCTA: -0.862 z-score

Series 8
Target: RNA binding protein fox-1 homolog 2, RRM domain, GST-SBP tag (RBFOX2, Homo sapiens, UniProt O43251-10, residues 100-194)
Technique: RNA Bind-n-Seq
Form: RNA
Medium: in vitro
Tested at: 365 nM
Setting: natural RNA segment, single round, ends assumed
Relative to: no-protein control
Reading: higher = stronger binding
Quantity: RBNS enrichment (R)
Constant ends, left off below: GGGAGUUCUACAGUCCGACGAUC … UGGAAUUCUCGGGUGCCAA
Residues (chain): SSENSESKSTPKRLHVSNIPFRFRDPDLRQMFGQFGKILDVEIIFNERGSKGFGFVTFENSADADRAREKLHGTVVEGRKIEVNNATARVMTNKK
AAAAUGACAAGCAUUGCAUCCCAGUCUUGUGUUCCGAAGUCAGUCGGAGUACUUGAAGAAGGCCCACGGGCGGCACGGAGUUCCUGAGCCCUUUCUGUAGUGGGGGAAAG: 2.1
UUCCUGUGGCCAUGCUGACUUACACUAAGAUUCUACCCCAGAAAACAAUUCUUUAGCAGUGGACAGAACCCUUAAAUUCUAAAAAGCUACAAACAUCAAGCAAUUCAGGU: 0.455
CAAAAGGAAGGUGAUAGGGAAUUAUGGAAGUCCAUCCAAGCCCCUGACACAGAGCCUUCUGUGCUGUUUCCUGUCCUAGGUUUGAGAGACCAAAUAUGAACUUGUGAGUU: 0.322
AAAGCUCACAUUCUAAGUAGAGAAGCAGGAAAAAUUGUUCAAAAGACAAACACCCUGUUGAACUGAGAGAAGUAAACUCCAGAAGGGAACCAAGAUUUCCUCCCUUUCCU: 0.19
UCCACUUAUAACCAUUGUAUGCUCCUUCUAGUGUUAUCAUGCACAAGAAAAGUGCCAGUUUUACCCAUGCCAUAUAAUUCAGCUCUUUUGAGUUAUGUGGGGCCAGCAGA: 0.93
CACGUGUGCGAACUGAAAUGUCAUAGCUGAAGCAGUAUAACAGAAAACCUUUGUUUCCUGUGGGGGGAGGACUGAACAUGUGGUCUUAACAGCCUUUUGUACAGAUAUCU: 0.433
UCUGUCCUCAAACAGUGAACCCAGGCUGCAGCCUGAGACCUGGACUCUAGCCCCCAUCCAUCCUUCCCAUCUCCCAGCUAGAGGGAGAGCUGGGCUUUGGACAGAAAAGA: 0.361
CAGCCAUCUCUGCAAAUGCUCCUGAACUGCUGACAGUUACGGCAUCAAACGGAAGACGGCAGGCCCUGUCCUUCCACUCAGGUGCUGCUUGCAGUGCUCCUCAACAGAGG: 0.289

For quick reference, copied from above (series 1):
AGACCUU: -0.311
GAGAGGC: 0.216
CUCGCUU: -0.478
CAGACCG: 0.0207
UGACGCC: -0.246
ACGGCAG: 0.153
CUAACUA: -0.188
UCGUGUA: -0.079
CGGUGCA: 0.0352
CAAUAGU: -0.195
ACGACAU: -0.0881
GCCUCUG: -0.237
GUGGUCC: -0.0754
